{"data": "Experimental data of several laboratories", "note": "Numbered parts are unrelated; each lists some results of a single study."}
{"data": "Block 1", "target": "Interferon regulatory factor 7, full length, phosphomimetic (IRF7, Homo sapiens, UniProt Q92985, residues 1-503, S471D/S472D/S475D/S476D/S477D/S483D/S484D/S487D)", "method": "protein-binding microarray", "molecule type": "double-stranded DNA, one strand shown", "sample": "in vitro", "tested at": "2200 nM top", "setting": "60-bp whole probe", "added": "salmon DNA 0.4 mg/ml", "reference": "random background probes", "direction": "higher = stronger binding", "shared flanks, not repeated": "GCCTAGCAC … GTCTTGATTCGCTTGACGCTGCTG", "UniProt Q92985, sequence (whole entry, unmodified, looked up)": "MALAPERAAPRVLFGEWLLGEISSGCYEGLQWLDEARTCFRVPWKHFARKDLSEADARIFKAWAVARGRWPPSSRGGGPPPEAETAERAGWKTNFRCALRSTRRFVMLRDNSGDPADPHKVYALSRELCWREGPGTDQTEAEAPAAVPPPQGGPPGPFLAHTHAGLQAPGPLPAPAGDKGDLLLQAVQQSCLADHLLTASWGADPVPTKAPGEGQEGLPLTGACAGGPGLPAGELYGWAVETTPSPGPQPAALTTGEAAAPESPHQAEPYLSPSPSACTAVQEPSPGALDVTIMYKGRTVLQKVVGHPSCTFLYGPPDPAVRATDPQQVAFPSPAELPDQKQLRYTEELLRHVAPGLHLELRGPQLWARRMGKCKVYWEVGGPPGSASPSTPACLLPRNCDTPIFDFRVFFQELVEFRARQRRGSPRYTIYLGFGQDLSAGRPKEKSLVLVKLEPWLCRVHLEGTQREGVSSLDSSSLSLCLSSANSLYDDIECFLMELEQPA"}
{"Oligonucleotide": "TTAGCTTTCCTTTTCCTTTAGTGCTAG", "fitted relative affinity [z-score]": 7.66}
{"Oligonucleotide": "GACGAAGTGAGTATCGAGACGTGCTAG", "fitted relative affinity [z-score]": -0.335}
{"Oligonucleotide": "AAATCATTTTCTCTGTTCTAGTGCTAG", "fitted relative affinity [z-score]": 1.41}
{"Oligonucleotide": "TTAGGATTGGGTATCGGTTAGTGCTAG", "fitted relative affinity [z-score]": 0.395}
{"Oligonucleotide": "TCAAGTCTGAGATCCAGACTGTGCTAG", "fitted relative affinity [z-score]": -0.0382}
{"Oligonucleotide": "TCAGGCTTTCCTTTATGACTGTGCTAG", "fitted relative affinity [z-score]": 0.806}
{"Oligonucleotide": "GACGATTTCAGTTCCGAGTCGTGCTAG", "fitted relative affinity [z-score]": 2.37}
{"Oligonucleotide": "TTAGGTTTCCTTTTCCTTTGGTGCTAG", "fitted relative affinity [z-score]": 7.11}
{"Oligonucleotide": "TTAGAACTGAGTTTCGCTTAGTGCTAG", "fitted relative affinity [z-score]": 3.33}
{"Oligonucleotide": "GAGGGTTCCCTTTTCCTGACGTGCTAG", "fitted relative affinity [z-score]": 1.61}
{"Oligonucleotide": "GACGATATCAGACTGGGGACGTGCTAG", "fitted relative affinity [z-score]": 0.0515}
{"Oligonucleotide": "GACGAGATCGGGACTGGAGACGTGCTA", "fitted relative affinity [z-score]": -0.397}
{"Oligonucleotide": "TTGGGACTGGGGTATCGGTTAGTGCTA", "fitted relative affinity [z-score]": -0.729}
{"Oligonucleotide": "GTAGGTTTCGGGTTTCGGTTAGTGCTA", "fitted relative affinity [z-score]": 10.6}
{"Oligonucleotide": "GACGCTTCCCTTTTCCTGACGTGCTAG", "fitted relative affinity [z-score]": 3.05}
{"Oligonucleotide": "TCATGTTGCTGTTTGAGACTGTGCTAG", "fitted relative affinity [z-score]": 1.95}
{"Oligonucleotide": "TTAGATTTCAGACTGGACTAGTGCTAG", "fitted relative affinity [z-score]": -0.152}
{"Oligonucleotide": "TTAGATATCGACACTGGGTTAGTGCTA", "fitted relative affinity [z-score]": -0.17}
{"Oligonucleotide": "TTAGATATCAGACTGGATAAGTGCTAG", "fitted relative affinity [z-score]": -0.327}
{"Oligonucleotide": "TCATCTCTTGTTCTCTCACTGTGCTAG", "fitted relative affinity [z-score]": 2.12}
{"Oligonucleotide": "TTAGGAATCCTTCTCCTTTAGTGCTAG", "fitted relative affinity [z-score]": 0.393}
{"Oligonucleotide": "TTAGGTTTCCTCCTCCTTTAGTGCTAG", "fitted relative affinity [z-score]": 1.64}
{"data": "Block 2", "target": "Ras GTPase-activating protein-binding protein 1, full length (G3BP1, Homo sapiens, UniProt Q13283)", "method": "RNA Bind-n-Seq", "molecule type": "RNA", "sample": "in vitro", "tested at": "200 nM", "setting": "whole 134-nt RNA, ends assumed", "added": "150 mM LiCl", "reference": "input library", "direction": "higher = stronger binding", "each molecule": "7-deaza-guanosine replaces G", "shared flanks, not repeated": "GGGAGUUCUACAGUCCGACGAUC … UGGAAUUCUCGGGUGUCAAGG", "UniProt Q13283, sequence (whole entry, looked up)": "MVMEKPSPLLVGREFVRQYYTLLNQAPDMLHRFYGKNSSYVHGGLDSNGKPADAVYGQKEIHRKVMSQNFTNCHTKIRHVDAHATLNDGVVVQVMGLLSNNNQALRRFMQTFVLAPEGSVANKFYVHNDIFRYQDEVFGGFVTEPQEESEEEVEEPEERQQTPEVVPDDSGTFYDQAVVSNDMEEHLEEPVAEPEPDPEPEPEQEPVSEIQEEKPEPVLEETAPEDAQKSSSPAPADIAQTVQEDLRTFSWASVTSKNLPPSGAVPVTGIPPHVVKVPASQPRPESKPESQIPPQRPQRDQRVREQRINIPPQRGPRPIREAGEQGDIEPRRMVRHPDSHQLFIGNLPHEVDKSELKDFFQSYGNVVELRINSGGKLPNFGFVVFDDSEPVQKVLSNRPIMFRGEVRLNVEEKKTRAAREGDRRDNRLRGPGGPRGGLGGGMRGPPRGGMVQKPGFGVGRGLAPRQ"}
{"Oligonucleotide": "AGUCCUGUGCUACACAUCGUAUGUACCGAAUCGGGUUUUGGGUUUUGGGGUUUUGGGGAAAGUAUUAUGUUACGCCGUUCGGAUCUGCAC", "log2 enrichment": 0.521}
{"Oligonucleotide": "UCCUGUGCUACACAUCGUAUGUACCGAAUCGGAAAAAAGGAAAAAAGGGGAAAAAAGGGAAAGUAUUAUGUUACGCCGUUCGGAUCUGCA", "log2 enrichment": -0.532}
{"Oligonucleotide": "AAGUCCUGUGCUACACAUCGUAUGUACCGAAUCGGGUUUUGGGGUUUUGGGUUUUGGAAAGUAUUAUGUUACGCCGUUCGGAUCUGCACU", "log2 enrichment": 0.15}
{"Oligonucleotide": "GCAAAAAGUAAAAACAAAUGGAAAUGCUUCGGAUAGUGGCAGGGGUGGGGGUUGCUAAGGAAAGGGUGGGAUGGGAGUGGGUAAAGAGUU", "log2 enrichment": -0.104}
{"Oligonucleotide": "GCAGGAAGUAAAAACAAACGGAAAUGCUUCGGAUAGUGGCAGGGGUGGGGGUUGCUAAGGAAAGGGUGGGAUGGGAGUGGGUAAAGAGUU", "log2 enrichment": 0.0193}
{"Oligonucleotide": "GCAGGAAGUAAAAACAAAUGGAAAUGCUUCGGAAAGUGGCAGGGGUGGGGGUUGCUAAGGAAAGGGUGGGAUGGGAGUGGGUAAAGAGUU", "log2 enrichment": 0.646}
{"Oligonucleotide": "ACCAUGAAAGUGGGCAUCUUUGGGAAGUGGGGCAAGGGGGGGAUAGGGAGGGGGGUAACACUUUGGGAACAGGUGGUCCCAGGUCGUUUC", "log2 enrichment": 0.32}
{"data": "Block 3", "target": "RING finger protein unkempt homolog, zinc fingers 1-6, SBP tag (UNK, Homo sapiens, UniProt Q9C0B0, residues 30-357)", "method": "RNA Bind-n-Seq", "molecule type": "RNA", "sample": "in vitro", "tested at": "100 nM", "setting": "RNA with constant flanks, vertebrate orthologous sites, ends assumed", "reference": "input RNA pool", "direction": "higher = stronger binding", "shared flanks, not repeated": "GGGAGUUCUACAGUCCGACGAUC … CAACAGAGGAUUGAGCAUCA", "UniProt Q9C0B0, sequence (30-357, looked up)": "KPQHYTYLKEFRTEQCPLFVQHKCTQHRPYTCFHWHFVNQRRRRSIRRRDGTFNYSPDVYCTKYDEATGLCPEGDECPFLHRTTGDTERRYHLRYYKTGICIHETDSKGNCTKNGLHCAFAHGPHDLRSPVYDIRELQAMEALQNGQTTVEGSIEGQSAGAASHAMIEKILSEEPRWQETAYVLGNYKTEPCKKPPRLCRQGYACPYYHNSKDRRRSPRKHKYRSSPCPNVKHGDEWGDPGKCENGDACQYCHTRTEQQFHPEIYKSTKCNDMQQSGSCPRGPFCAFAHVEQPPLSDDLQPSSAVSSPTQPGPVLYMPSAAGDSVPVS"}
{"Oligonucleotide": "AAGUAUCCCAGUUUACCGUGUUGAGUUGGCAUUGUACAGAAAUUAACAGCCAUAUUGGUCUAGAAAUGUUAAACUUAAUUUUUUUCCAUUUGUACAGGGGUAACGCACUGUAUUAAAUAU", "bound/input enrichment [ratio]": 0.523}
{"Oligonucleotide": "AAAUUUAUUUCAUGCCCUGGACUCCUUAUCGUACCGAUACUUUAAUAGAAUAUGCUUCUUUAGAAGAUUUCCAAAGCAGUCGCCAAACAACAACAUAUAAACUUCCAAAUCGAGUAGAUG", "bound/input enrichment [ratio]": 1.27}
{"Oligonucleotide": "AUCACAGUCGCUUUUUACCACCUCAAUGAGGUAGAGUCUCUCUUGGCAUGUGGUUGUUACAAGAGCCAGUUGCACCUGACAAGUCUCUCCACAUUUCAUUUCUUUCGCAUUCUUGGUCUU", "bound/input enrichment [ratio]": 0.645}
{"Oligonucleotide": "CAUCUAUUUCAUUUUGAAGACAGUGUCUUUGGUUGUUCACGUUGUUCUUUUUGAUGGCUGGGUUACCGAGUAUCUUUUGGCAUCUGCCUGAAUCACUUCCACUGAGUGAACCAGUCACCA", "bound/input enrichment [ratio]": 0.266}
{"Oligonucleotide": "CUAUUGUGUGAAGCAUGUCUUUCCAGAGAAAUAACAUUAUAAAAGUAUUACUAAACAAUUUAAAGUCUUAAAGUUUUAAAUUAUAUGUCAAGCAAUGAAAGUGAAUUUGAGAGUGUAAGG", "bound/input enrichment [ratio]": 0.415}
{"Oligonucleotide": "AAAAAUGGCCUCUGCUCUAUUAAAAAGUAGGAACAGUCCUGCAAAUAUGAAGGUCCUAAAUAGCUAUUUUUGAAAUUAAAAAGUUUAAAUUUUGUAAAUCAGCUGUUGCUACUCCAUGAC", "bound/input enrichment [ratio]": 0.35}
{"Oligonucleotide": "AUCCCUCAGUGACAGUGUGCCAUCUGUAGCAGAUUCCCACUCUAGUCAUUUUUCUGAAUUUAGUUGUUCUGACCUAGAAAGCAUGAAAACUUCCUGCAGUCAUGGUUCCAGUGAUUAUCA", "bound/input enrichment [ratio]": 2.97}
{"data": "Block 4", "target": "RNA binding protein fox-1 homolog 2, RRM domain, GST-SBP tag (RBFOX2, Homo sapiens, UniProt O43251-10, residues 100-194)", "method": "RNA Bind-n-Seq", "molecule type": "RNA", "sample": "in vitro", "tested at": "365 nM", "setting": "natural RNA segment, single round, ends assumed", "reference": "no-protein control", "direction": "higher = stronger binding", "shared flanks, not repeated": "GGGAGUUCUACAGUCCGACGAUC … UGGAAUUCUCGGGUGCCAA", "Residues (chain)": "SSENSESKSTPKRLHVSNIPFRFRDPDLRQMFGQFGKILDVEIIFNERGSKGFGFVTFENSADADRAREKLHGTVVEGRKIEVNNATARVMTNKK"}
{"Oligonucleotide": "CUGCCGUUAAGCCAAAACAAAAGCUGUGAACAUAGGUGCUUGAGAGAAUGCGUGUUGACAGGAAAGUGACUGAUUUACAGACCCAAGUCUUUGUCUCAUGAAACUACCAA", "RBNS enrichment (R)": 0.979}
{"Oligonucleotide": "UAAGUUUUAAAUAAAGUCAUGAUCAGUGUGCAUUUGUGAUUACAUGUGUACUCAUUCUUUUCCCAAGCUGACGAGGUCUCUCCCGAGUGGCGCUUCGAAAGGCGUGCAUG", "RBNS enrichment (R)": 3.67}
{"Oligonucleotide": "UUUGAAAUUAGGUUAGAUAUACAUUUUUAAAUUUAACAUCUGGCUGGACAGUGUUCUAUUAACUCAUUGAAUGUGUUUCCUUUGUCUUGUGUUAAUAAAUAUUGAUGCUU", "RBNS enrichment (R)": 1.04}
{"Oligonucleotide": "AGAGCCACCAGCACUUCAGAGCCAGCCCUCAGCCCGGGUGGCCUGGAGAGGGCCAGUGCUGCCACUGGUGUGGGGGUCAUUCUUGUGCACCCCCUACUGUGUGCUCCUCU", "RBNS enrichment (R)": 0.369}
{"Oligonucleotide": "AUGCACACGUAUGUUUAUUGUGGCAUUAUUCACAAUAGCAAAGACUUGGAACCAACCCAAAUGUCCAACAAUGAUAGACUGGAUUAAGAAAACGUGGCACAUAUACACCA", "RBNS enrichment (R)": 0.899}
{"Oligonucleotide": "UCCACCUGUGUUGCUUUUGUAACUUGAUAUUUAUGCAGGGUUUUGUAGUUUUUAUUAUGUAGUGACUUUUCAGAAUAAAAGCAGCUGAUGUGACUGACUGCAUCCGACUC", "RBNS enrichment (R)": 1.05}
{"Oligonucleotide": "CAGUUUCCAGCUAGUCCUAGAGUUCUAUAUUUCUACAUAGUUGAAUUAUUUUAUCAUGCGGUUGCUGGGGAAUACAACUAACACUUUUGAAGCUACUAAUUUUAUGUCAA", "RBNS enrichment (R)": 0.626}
{"Oligonucleotide": "AUGGUCUGGUGCCUAGCUGGGAGUGAGCAGCAGCCCAUCCCCUGUUCACUUUCUCUAGCCCAUCAUUACCUGUGAACUGCAGUGGGGCAGUCAUGGCAAAUAGAAUUGGG", "RBNS enrichment (R)": 0.466}
{"Oligonucleotide": "AGCCUAGAUGGACCCAACCCCGCCCCAGAGGGCAGCAGGUGGGGGUGGGCAAUGUUGGCGCUCACCUGGUCAGUGCACCAGUACCAGGUGGCCAUGAUGGUCAGACCAAA", "RBNS enrichment (R)": 0.649}
{"Oligonucleotide": "CACUGAGGCAGAGACUCCUUUUGGGAGUCACUGUGGUUUAGGUUUUUUUCUCCCCAUCCCACUUAAGGUGAUGGGGCAAGGGAAGAACUCAGCUCCCCUCCCCUGAAUUA", "RBNS enrichment (R)": 0.193}
{"Oligonucleotide": "CCGAAGAAGGGUCCUUCCCUCUCCCCAAGACUUGGUGUCCUUUCCCUCCACUCCUUCCUGCCACCUGCUGCUGCUGCUGCUGCUAAUCUUCAGGGCACUGCUGCUGCCUU", "RBNS enrichment (R)": 0.576}
{"Oligonucleotide": "UCCAAGUCACUAAAGAGUUACUAAAGUUAGGCACUUAAUACUAAUUUUAAAUAUGUCUAAAAAUAAAGUAAUCUGGGGACUGAGUUGAAAUGUCAGUGAACAUGAGUAUU", "RBNS enrichment (R)": 0.35}
{"note": "Repeated from above (block 1):"}
{"Oligonucleotide": "TTAGGATTGGGTATCGGTTAGTGCTAG", "fitted relative affinity [z-score]": 0.395}
{"Oligonucleotide": "TTGGGACTGGGGTATCGGTTAGTGCTA", "fitted relative affinity [z-score]": -0.729}
{"Oligonucleotide": "TTAGAACTGAGTTTCGCTTAGTGCTAG", "fitted relative affinity [z-score]": 3.33}
{"Oligonucleotide": "GTAGGTTTCGGGTTTCGGTTAGTGCTA", "fitted relative affinity [z-score]": 10.6}
{"Oligonucleotide": "TTAGGTTTCCTCCTCCTTTAGTGCTAG", "fitted relative affinity [z-score]": 1.64}
{"Oligonucleotide": "GACGCTTCCCTTTTCCTGACGTGCTAG", "fitted relative affinity [z-score]": 3.05}
{"Oligonucleotide": "GACGAGATCGGGACTGGAGACGTGCTA", "fitted relative affinity [z-score]": -0.397}
{"Oligonucleotide": "TTAGCTTTCCTTTTCCTTTAGTGCTAG", "fitted relative affinity [z-score]": 7.66}
